# Experimental data gathered from unrelated publications.
# Each numbered part is a random draw from the data of one study; scales do not carry over between parts.
# Chain of UniProt P62256 (whole entry, looked up): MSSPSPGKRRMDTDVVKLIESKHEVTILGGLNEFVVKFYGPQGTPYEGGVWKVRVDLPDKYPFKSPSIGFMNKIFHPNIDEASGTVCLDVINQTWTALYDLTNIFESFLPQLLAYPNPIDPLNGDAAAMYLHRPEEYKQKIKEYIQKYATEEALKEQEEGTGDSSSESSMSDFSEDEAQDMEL
# Chain of UniProt Q15819 (whole entry, looked up): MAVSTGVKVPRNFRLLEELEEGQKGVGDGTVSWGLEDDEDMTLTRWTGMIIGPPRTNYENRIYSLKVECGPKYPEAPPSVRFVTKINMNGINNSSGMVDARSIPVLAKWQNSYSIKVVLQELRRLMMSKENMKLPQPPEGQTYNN
# Chain of UniProt Q96LR5 (whole entry, looked up): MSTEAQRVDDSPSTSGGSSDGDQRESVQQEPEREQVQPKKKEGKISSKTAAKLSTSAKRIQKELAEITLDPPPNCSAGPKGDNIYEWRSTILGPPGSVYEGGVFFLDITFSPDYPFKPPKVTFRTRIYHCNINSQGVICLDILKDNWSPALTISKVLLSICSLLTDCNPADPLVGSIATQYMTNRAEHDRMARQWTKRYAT
# Chain of UniProt Q5VVX9 (whole entry, looked up): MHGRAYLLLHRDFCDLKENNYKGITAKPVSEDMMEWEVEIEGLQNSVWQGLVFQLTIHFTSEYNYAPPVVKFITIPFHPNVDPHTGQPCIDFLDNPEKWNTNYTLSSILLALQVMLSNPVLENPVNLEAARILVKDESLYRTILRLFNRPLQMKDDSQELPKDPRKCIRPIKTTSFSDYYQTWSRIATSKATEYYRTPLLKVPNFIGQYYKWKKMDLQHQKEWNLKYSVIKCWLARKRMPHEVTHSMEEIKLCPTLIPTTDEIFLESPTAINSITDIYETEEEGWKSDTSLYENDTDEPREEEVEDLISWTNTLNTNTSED
# Chain of UniProt P61077 (whole entry, looked up): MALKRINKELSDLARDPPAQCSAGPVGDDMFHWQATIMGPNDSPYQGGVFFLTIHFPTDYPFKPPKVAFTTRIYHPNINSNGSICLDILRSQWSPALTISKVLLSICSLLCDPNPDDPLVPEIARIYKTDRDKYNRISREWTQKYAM
# Chain of UniProt O14933 (whole entry, looked up): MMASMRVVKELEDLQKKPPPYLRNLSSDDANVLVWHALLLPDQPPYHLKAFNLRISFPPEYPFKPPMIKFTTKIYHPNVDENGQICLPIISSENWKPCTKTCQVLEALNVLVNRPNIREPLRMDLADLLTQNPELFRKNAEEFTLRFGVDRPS
# Chain of UniProt P49427 (whole entry, looked up): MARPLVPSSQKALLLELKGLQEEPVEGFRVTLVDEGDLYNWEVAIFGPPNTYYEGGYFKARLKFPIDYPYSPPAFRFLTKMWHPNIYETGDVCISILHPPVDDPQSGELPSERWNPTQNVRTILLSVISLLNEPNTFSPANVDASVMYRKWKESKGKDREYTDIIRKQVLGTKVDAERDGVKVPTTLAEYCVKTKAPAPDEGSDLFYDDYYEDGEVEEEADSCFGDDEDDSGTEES

# Study 1 — technique: RNA Bind-n-Seq; form: RNA; sample: in vitro; tested at: 1 µM; notes: whole 134-nt RNA, ends assumed; added: 150 mM KCl; reference: input library; direction: higher = stronger binding
# Target: Ras GTPase-activating protein-binding protein 1, C-terminal RGG region (G3BP1, Homo sapiens, UniProt Q13283)
# Chain of UniProt Q13283 (whole entry, looked up): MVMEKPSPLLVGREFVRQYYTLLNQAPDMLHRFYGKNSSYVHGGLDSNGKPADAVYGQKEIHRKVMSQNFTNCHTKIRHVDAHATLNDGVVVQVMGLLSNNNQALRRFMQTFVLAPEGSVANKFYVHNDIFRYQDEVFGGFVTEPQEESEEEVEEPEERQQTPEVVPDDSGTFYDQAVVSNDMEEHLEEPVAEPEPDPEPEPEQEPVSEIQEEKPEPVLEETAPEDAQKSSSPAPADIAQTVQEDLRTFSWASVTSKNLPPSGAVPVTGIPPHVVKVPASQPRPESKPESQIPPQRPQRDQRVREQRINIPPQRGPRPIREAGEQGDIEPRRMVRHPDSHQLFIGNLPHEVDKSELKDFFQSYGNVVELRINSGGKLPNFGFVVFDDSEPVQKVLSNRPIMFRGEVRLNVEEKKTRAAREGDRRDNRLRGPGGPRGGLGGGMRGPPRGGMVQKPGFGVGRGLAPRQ
Sequence,log2 enrichment
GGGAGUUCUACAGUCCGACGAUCAAGUCCUGUGCUACACAUCGUAUGUACCGAAUCGGAAAAGGAAAAGGGGAAAAGGGGAAAGUAUUAUGUUACGCCGUUCGGAUCUGCACUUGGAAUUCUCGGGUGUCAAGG,-1.17
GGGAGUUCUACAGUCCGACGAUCAAGUCCUGUGCUACACAUCGUAUGUACCGAAUCGGGGAGGGGUGGGGUUUUUGGGGAAAGUAUUAUGUUACGCCGUUCGGAUCUGCACUUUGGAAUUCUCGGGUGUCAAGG,1.67
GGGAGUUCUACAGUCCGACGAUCACCAUGCAGGUGGGCAUCUUUGGGAAGUGGGGCAAGGGGGGGAUAGGGAGGGGGGUAACACUUUGGGAACAGGAAAUCCCAGGUCGUUUCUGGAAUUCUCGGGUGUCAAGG,-0.555
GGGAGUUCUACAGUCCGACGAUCACCAUCCAGGUGGGCAUCUUUGGGAAGUGGGGCAAGGGGGGGAUAGGGAGGGGGGUAACACUUUGGGAACAGGUGGUCCCAGGUCGUUUCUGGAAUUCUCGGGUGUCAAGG,-1.1
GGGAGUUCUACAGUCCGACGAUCUGCCCUCCGUGGAGUCUUUGUUUCGAAGUCCGAUAAAGGAAUCUCUAUUCCGGUCUUCUUCUAAAGAGUCUUUGGUACGAACAUCUUCCAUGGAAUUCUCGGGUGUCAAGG,-1.19
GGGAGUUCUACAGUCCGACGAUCAAGUCCUGUGCUACACAUCGUAUGUACCGAAUCGGAAAGGGGAAAGGGGAAAGGGGAAAGUAUUAUGUUACGCCGUUCGGAUCUGCACUUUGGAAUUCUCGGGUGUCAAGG,0.112
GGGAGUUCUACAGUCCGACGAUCCAAGUCCUGUGCUACACAUCGUAUGUACCGAAUCGGAGGAAAAAGGAAAAAAAGGAAAGUAUUAUGUUACGCCGUUCGGAUCUGCACUUCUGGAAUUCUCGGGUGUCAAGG,-1.7
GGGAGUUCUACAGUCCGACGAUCUCAAGUCCUGUGCUACACAUCGUAUGUACCGAAUCGGGAGGGUGGGUUUUUGGGAAAGUAUUAUGUUACGCCGUUCGGAUCUGCACUUCCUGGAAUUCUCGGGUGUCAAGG,1.67
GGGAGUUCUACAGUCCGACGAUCAAGUCCUGUGCUACACAUCGUAUGUACCGAAUCGGGGCCCGGCCCGGGGCCCGGGGAAAGUAUUAUGUUACGCCGUUCGGAUCUGCACUUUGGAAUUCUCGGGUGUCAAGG,-2.25
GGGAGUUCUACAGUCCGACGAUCAAGUCCUGUGCUACACAUCGUAUGUACCGAAUCGGGCCCCGGGCCCCGGGCCCCGGGAAAGUAUUAUGUUACGCCGUUCGGAUCUGCACUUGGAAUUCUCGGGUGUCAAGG,-2.57

# Study 2 — technique: RNA Bind-n-Seq; form: RNA; sample: in vitro; tested at: not given; notes: RNA with constant flanks, ends assumed; reference: input RNA pool; direction: higher = stronger binding
# Target: RING finger protein unkempt homolog, zinc fingers 1-6, GST-SBP tag (UNK, Homo sapiens, UniProt Q9C0B0, residues 30-357)
# Chain of UniProt Q9C0B0 (30-357, looked up): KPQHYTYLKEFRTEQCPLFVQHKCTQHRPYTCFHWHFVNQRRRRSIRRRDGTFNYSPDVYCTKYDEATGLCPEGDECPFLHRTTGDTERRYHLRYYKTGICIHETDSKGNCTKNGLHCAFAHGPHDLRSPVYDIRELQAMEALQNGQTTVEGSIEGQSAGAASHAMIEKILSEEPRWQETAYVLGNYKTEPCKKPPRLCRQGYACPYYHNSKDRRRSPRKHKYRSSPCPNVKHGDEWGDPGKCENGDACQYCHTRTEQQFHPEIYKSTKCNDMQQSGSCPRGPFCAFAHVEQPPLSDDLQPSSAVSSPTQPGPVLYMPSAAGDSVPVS
Sequence,bound/input enrichment [ratio]
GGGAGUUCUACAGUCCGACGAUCCCAUUUAAAGACCGAGUCACCUGGGCUGGGGACCUUGACAAGAAAGAUGCAUCAAUCAAUACCGAAAAUAUUCAGGCUGUUCACAAUGGCACCUAUAUCUGCGAUGUCAAAAAUCCUCCUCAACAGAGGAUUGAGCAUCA,0.419
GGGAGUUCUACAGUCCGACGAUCUUGUACGCUUUAUCCAAAGAAAUAUAUGUGAUUAGCGCAGAGACCUUCACUGCCCUAUCAGUACCCGGUGUAAUGGUCUAUGGAAUUAAAAAAUAUGGUCCCUUUGUUGCAGACUUUGCUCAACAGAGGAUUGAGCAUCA,0.704
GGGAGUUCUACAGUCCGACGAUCAAAUGUUGUUUACCUUCUCAGAGUAGUGCUUUGGGGGUUCCUGGCGGCGUGUUGGAGGUCCCGCACAUACAGCUUCCCUUAACAGAAUAUUUUACGACAGUUUCAUACAGGGUUGCCUUACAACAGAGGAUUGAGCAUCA,0.3
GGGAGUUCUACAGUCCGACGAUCCUGCUUUUGGUGCUGCCUGUUGUGGAAGCAGUAGAAGCCGGUGAUGCAAUCGCCCUUUUGUCCGGUGUGGUUCUCAGCAUUACAGGCAUUUGUGCCUGCUUGGGGGUAUAUGCACGAAAACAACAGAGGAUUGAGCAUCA,0.141
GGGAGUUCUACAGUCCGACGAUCACCGUGCACAUUGCAUGUACUCCUCAGGCUGCCAAGGCAAUAAGCAACAAGGACCAGCACCGCAUAUCAUAUACUUUAUCUCGAGCCCAGACGGUGGUGGUUGAAUAUACUCAUGACAGCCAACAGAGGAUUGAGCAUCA,0.208
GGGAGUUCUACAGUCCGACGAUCACGCCAAAGCCACUUCGAAGUAGUGCUGACCCUGCACUCAAUCAAGAAGUUGCAUUAAAAUCCGAACCAAAUCCAGAGUCACUGGAACUUUCUUUUACCAUGCCCCAGAUUCAGGAUCAGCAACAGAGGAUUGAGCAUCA,0.153
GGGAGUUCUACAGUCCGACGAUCAGAGACAUGUUGCGGCGGAUUAAGGAAGAUGAAGAUGACAAGACAGUCAUGGAUCUUGCUGCCGUUUUGUUUGAAACGGCAACACUUCGGUCAGGAUAUCUUCUACCAGACACCAAGGCGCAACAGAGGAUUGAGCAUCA,0.149
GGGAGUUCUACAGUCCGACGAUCCAGCUUCGGCAGGACAUAGUUGCAGGACGUCUGCCCUGUUCCUUUGCAACCUUAGCAUUAUCCGGUUCUUACACCAUCCAGUCUGAACUGGGAGACUACGACCCAGAACUCCAUGGCGUGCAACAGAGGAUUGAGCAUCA,0.202
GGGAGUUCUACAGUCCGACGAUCGGACAGACGUGUGGAAAACAUAAAUGUCCAAGAAACACUUUUGUCUUAAUGGUCUGUGGAAACCGGUUCACUCCUUGAAAUUAAGGUCUAAAAGGUGUUUUGUGGUUUCUGUAUUUCUUCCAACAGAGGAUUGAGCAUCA,0.182
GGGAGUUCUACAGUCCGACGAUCACAAUCGUUGACACAGUGGGAUUUGGAGACCAGAUUAAUAAAGAUGACAGCUAUAAGCCUACCGUGGAAUACAUUGACGCCCAGUUUGAGGCCUACUUGCAAGAAGAAUUGAAAAUUAAACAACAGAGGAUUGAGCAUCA,0.233
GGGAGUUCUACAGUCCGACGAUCUGUUACUCUGAUGGCACCGCAGUUCAUGAAAGCCACACAAAAAAUGCUUCAUUUUACGCCCGCUCUUCAACUCUCUACUACCAAAUAGAUAGUCACAUCCCAGGAACUCCUAGCCAGCUCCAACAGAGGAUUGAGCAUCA,0.209

# Study 3 — technique: protein binding microarray; form: double-stranded DNA, one strand shown; sample: in vitro; tested at: not given; reference: not given; direction: higher = stronger binding
# Target: Histone acetyltransferase KAT6A, winged helix 1, GST fusion (KAT6A, Homo sapiens, UniProt Q92794, residues 1-85)
# Notes: 8-mer, flanks averaged, mean of 2 arrays, mostly near background
# Construct (chain): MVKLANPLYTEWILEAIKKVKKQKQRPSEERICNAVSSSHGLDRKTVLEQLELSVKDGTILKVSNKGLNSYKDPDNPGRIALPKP
Sequence,E-score
AGTGGCCC,-0.00905
CTACTCCC,-0.00921
TAAGCCTA,-0.151
CATGTGCA,-0.0134
AGCGAGGC,0.0639
ACACCGGA,0.1
ACGCCGAT,0.294
AATGATAG,0.0675
AAAATGCA,-0.288
ATACAGAC,-0.162
AGCTGAAG,-0.159
CCTAGGTC,-0.0486
CAACCACA,-0.189
CGCTATAA,0.197
ATACACTG,-0.232
GAAAGAGA,-0.137
GTCCTGAA,-0.27
TTGTACAA,-0.254
GCACATTA,-0.00169
CCGTCACC,0.213

# Study 4 — technique: yeast two-hybrid; sample: yeast; notes: mostly zero background; reference: not given; direction: higher = stronger interaction
# Molecule: KPDKMEETLTCIICQDLLHDCVSLQPCMHTFCAACYSGWMERSSLCPTCRCPVERICKNH (CHFR RING domain (UniProt Q96EP1))
target,lacZ reporter activity
CDC34 UBC core domain (UniProt P49427),0
UBE2V2 UBC core domain (UniProt Q15819),0
UBE2D3 UBC core domain (UniProt P61077),9700
UBE2L6 UBC core domain (UniProt O14933),0
UBE2E2 UBC core domain (UniProt Q96LR5),0
UBE2H UBC core domain (UniProt P62256),0
UBE2U UBC core domain (UniProt Q5VVX9),2320
